Measured values collected from several papers.
Each line is one published result; not all experiments were run side by side. “And” joins repeats or separate records; there may be more than shown. ± gives the spread as reported.

Cn1cnc(Cn2c(=O)[nH]/c(=N\c3cc4cn(C)nc4cc3Cl)n(Cc3cc(F)c(F)cc3F)c2=O)n1  treatment-related TEAE, Severe severity (human, severe renal impairment; oral, 375 mg): 0%
fengycin  maximum fusion (calcein leakage; POPC/SM/CHOL liposomes; 150 µM, fusion peptide, SARS-CoV-2): 4 ± 3%
O=c1ccn([C@@H]2O[C@](F)(CO)[C@@H](O)[C@H]2O)c(=O)[nH]1  protection (Lassa virus Josiah strain, strain 13/N guinea pig; concentration not given): 100%
O=C(O)c1cc(O)c2c(c1)C(=O)c1cccc(O)c1C2=O  inhibition (viral replication; SARS-CoV-2 trVLP system; 100 µM): > 90%
C[n+]1ccc(-c2cc[n+](C)cc2)cc1  survival time (FVB mice wild-type paraquat poisoning; dose not given, event flag 1): 5 days and 4 days and 7 days and 6 days and 2 days and 3 days
Nc1ncnc2c([C@@H]3N[C@H](CO)[C@@H](O)[C@H]3O)c[nH]c12  supernatant virus titre (Marburg marburgvirus; virus production; HeLa, Musoke; 6.3 µM): 590000 PFU/mL
Cc1cccc(N2CCN(C(=O)C3CCN(Cc4nc(-c5ccc(Cl)cc5)oc4C)CC3)CC2)c1C  maximum response (SARS-CoV-2; cytopathic effect; USA_WA1/2020; retest, 8-point, duplicates): 13.3%
polymyxin B  leakage time constant (calcein leakage; POPC/SM/CHOL liposomes; 150 µM, fusion peptide, SARS-CoV-2): 1 ± 1 min
CC(Nc1nc(N2CCNCC2C)nc2ccccc12)c1ccccc1 (stereo not drawn)  maximal response (SARS-CoV-2; cytopathic effect, cell-based CPE; USA_WA1/2020; round 2, 5-point dilution): 98.4%
CC[C@H](C)[C@H](NC(=O)[C@H](CC(C)C)NC(=O)[C@H](Cc1c[nH]c2ccccc12)NC(=O)[C@H](CCC(N)=O)NC(=O)[C@@H](NC(=O)[C@H](Cc1ccccc1)NC(=O)[C@H](C)NC(=O)[C@H](CCCCNC(=O)COCCOCCNC(=O)COCCOCCNC(=O)CC[C@H](NC(=O)CCCCCCCCCCCCCCCCCCC(=O)O)C(=O)O)NC(=O)[C@H](CCC(N)=O)NC(=O)[C@H](C)NC(=O)[C@@H](NC(=O)[C@H](CCCCN)NC(=O)[C@H](CC(=O)O)NC(=O)[C@H](CC(C)C)NC(=O)C(C)(C)NC(=O)[C@@H](NC(=O)[C@H](CO)NC(=O)[C@H](Cc1ccc(O)cc1)NC(=O)[C@H](CC(=O)O)NC(=O)[C@H](CO)NC(=O)[C@@H](NC(=O)[C@H](Cc1ccccc1)NC(=O)[C@@H](NC(=O)CNC(=O)[C@H](CCC(=O)O)NC(=O)C(C)(C)NC(=O)[C@@H](N)Cc1ccc(O)cc1)[C@@H](C)O)[C@@H](C)O)[C@@H](C)CC)[C@@H](C)CC)C(C)C)C(=O)N[C@@H](C)C(=O)NCC(=O)NCC(=O)N1CCC[C@H]1C(=O)N[C@@H](CO)C(=O)N[C@@H](CO)C(=O)NCC(=O)N[C@@H](C)C(=O)N1CCC[C@H]1C(=O)N1CCC[C@H]1C(=O)N1CCC[C@H]1C(=O)N[C@@H](CO)C(N)=O  treatment-emergent adverse events (healthy human; 8.0 mg, single ascending dose): 100%
C=CCc1ccc(O)c(-c2ccc(O)c(CC=C)c2)c1  inhibition (viral replication; SARS-CoV-2 trVLP system; 100 µM): > 90%
CNC(=O)[C@@H](NC(=O)[C@H](CC(C)C)[C@H](O)C(=O)NO)C(C)(C)C  inhibition (prothrombin time; human platelet-poor plasma; 0.1 µM, with: AP venom): 5.1% and 5% and 6%
ω-agatoxin IVA  PKA-RII phosphorylation inhibition (cAMP signalling, high-content microscopy; DRG neurons, rat, spinal cord injury; dose not given, normalised 0 to 1, unit not given, with: forskolin, DAMGO 0.01; relative to: DAMGO maximum, higher = stronger inhibition): 1.24 and 0.957 and 1.03
O=c1c(O)c(-c2ccc(O)c(O)c2)oc2cc(O)cc(O)c12  inhibition (viral replication; SARS-CoV-2 trVLP system; 100 µM): > 90%
mycosubtilin  maximum fusion (calcein leakage; POPC/SM/CHOL liposomes; 150 µM, fusion peptide, SARS-CoV-2): 11 ± 5%

Repeated from above:
C[n+]1ccc(-c2cc[n+](C)cc2)cc1  survival time (FVB mice wild-type paraquat poisoning; dose not given, event flag 1): 5 days and 4 days and 7 days and 6 days and 2 days and 3 days
